Assay results of several laboratories.
Each numbered part is a random draw from the data of one study; scales do not carry over between parts.

Block 1
Target: Histone acetyltransferase KAT6A, winged helix 2, GST fusion (KAT6A, Homo sapiens, UniProt Q92794, residues 85-181)
Method: protein binding microarray
Form: double-stranded DNA, one strand shown
Medium: in vitro
Tested at: not given
Setting: 8-mer, flanks averaged, mean of 2 arrays, mostly near background
Baseline: not given
Reading: higher = stronger binding
Quantity: E-score
Target sequence (chain): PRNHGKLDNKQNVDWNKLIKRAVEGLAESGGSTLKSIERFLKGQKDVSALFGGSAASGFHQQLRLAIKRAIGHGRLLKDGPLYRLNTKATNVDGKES
ACAGGTAG: -0.257
AAACCCCT: -0.028
AAACATTT: 0.0171
ATCCCACA: -0.0794
TAGTCAGA: -0.0613
CAGGCAAA: -0.018
GTATTCCA: -0.0607

Block 2
Target: Interferon regulatory factor 3, full length, phosphomimetic (IRF3, Homo sapiens, UniProt Q14653, residues 1-427, S386D/S396D/S398D/S402D/T404D/S405D)
Method: protein-binding microarray
Form: double-stranded DNA, one strand shown
Medium: in vitro
Tested at: 2540 nM top
Setting: 60-bp whole probe
Added: salmon DNA 0.4 mg/ml
Baseline: random background probes
Reading: higher = stronger binding
Quantity: fitted relative affinity
All sequences stand within: GCCTAGCAC … GTCTTGATTCGCTTGACGCTGCTG
Residues (chain): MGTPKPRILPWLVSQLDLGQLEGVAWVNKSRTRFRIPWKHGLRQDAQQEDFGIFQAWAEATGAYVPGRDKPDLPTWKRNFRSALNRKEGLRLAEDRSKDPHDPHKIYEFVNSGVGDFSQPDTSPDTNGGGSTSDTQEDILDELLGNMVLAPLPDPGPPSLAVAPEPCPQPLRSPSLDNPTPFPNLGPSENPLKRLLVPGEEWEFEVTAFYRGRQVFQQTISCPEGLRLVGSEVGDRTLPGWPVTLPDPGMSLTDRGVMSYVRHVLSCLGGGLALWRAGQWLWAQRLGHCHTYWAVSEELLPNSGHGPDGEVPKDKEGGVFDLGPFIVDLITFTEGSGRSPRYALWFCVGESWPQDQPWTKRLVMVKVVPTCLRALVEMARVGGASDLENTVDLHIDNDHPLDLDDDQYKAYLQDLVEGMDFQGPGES
TTACAACTGGGGTATCGATTAGTGCTA: -0.126 z-score
TCACATTTCCTTTACATACTGTGCTAG: 3.15 z-score
TTAGGTATCCTTATCCTTGAGTGCTAG: 5.28 z-score
GACGAACTGGGGTATCGAGAAGTGCTA: -0.419 z-score
TTAGATATCAGACTGAATTAGTGCTAG: 0.276 z-score
TTAGAACTGAGTTTCGTTTAGTGCTAG: 2.72 z-score
TTAGGTCGCCTTCTCCTTTAGTGCTAG: 1.94 z-score
TTAGGACTGGACTACCGGTTAGTGCTA: -0.581 z-score
TCCTCTTTCACTGCTCCCCACGTGCTA: 1.95 z-score
GATGTTTTGAGTTTTCCTTCGTGCTAG: 1.39 z-score

Block 3
Target: Fragile X messenger ribonucleoprotein 1, C-terminal low-complexity region (Fmr1, Mus musculus, UniProt P35922)
Method: RNA Bind-n-Seq
Form: RNA
Medium: in vitro
Tested at: 200 nM
Setting: whole 134-nt RNA, ends assumed
Added: 150 mM LiCl
Baseline: input library
Reading: higher = stronger binding
Quantity: log2 enrichment
Library: 7-deaza-guanosine replaces G
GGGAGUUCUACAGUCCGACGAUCCUCAAGUCCUGUGCUACACAUCGUAUGUACCGAAUCGGAAAGGAAAGGGAAAGGAAAGUAUUAUGUUACGCCGUUCGGAUCUGCACUUCCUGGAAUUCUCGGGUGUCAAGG: -0.0825
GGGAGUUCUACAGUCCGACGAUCUCAAGUCCUGUGCUACACAUCGUAUGUACCGAAUCGGGAAAAAGGGUGGGUGGGAAAGUAUUAUGUUACGCCGUUCGGAUCUGCACUUCCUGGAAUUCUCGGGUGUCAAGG: -1.27
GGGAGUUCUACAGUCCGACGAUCGCAGGAAGUAAAAACAAAUGGAAAUGCUUCGGAUAGUGGCAGGGGUGGGGGUUGCUAAGGAAAGGGAGGGAUGGGAGUGGGUAAAGAGUUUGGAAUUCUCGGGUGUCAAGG: 1.42
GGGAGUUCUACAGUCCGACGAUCCACAGACAACACGCACCCACACAGACACAGAGGGAAGGGGUUGGCAUGGGGACAGGGUGCACAGCAGGGCGGGGUAGGACCCCAGCCCCUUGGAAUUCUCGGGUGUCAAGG: -0.909
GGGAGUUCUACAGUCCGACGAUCCACAGACACCACGCACCCACACAGACACAGAGGGAAGGGGUUGGGAUGGGGACAGGGUGCACAGCAGGGCGGGGUAGGACCCCAGCCCCUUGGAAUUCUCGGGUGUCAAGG: 0.908
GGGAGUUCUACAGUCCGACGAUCCCUGUGCUACACAUCGUAUGUACCGAAUCGGGGAAAGGGGAAAAAGGGGAAAAAAAGGGGAAAGUAUUAUGUUACGCCGUUCGGAUCUGCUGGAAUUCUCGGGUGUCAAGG: 1.08

Block 4
Target: RNA binding protein fox-1 homolog 2, RRM domain, GST-SBP tag (RBFOX2, Homo sapiens, UniProt O43251-10, residues 100-194)
Method: RNA Bind-n-Seq
Form: RNA
Medium: in vitro
Tested at: 365 nM
Setting: natural RNA segment, single round, ends assumed
Baseline: no-protein control
Reading: higher = stronger binding
Quantity: RBNS enrichment (R)
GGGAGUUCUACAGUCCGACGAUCCUGGCCAUCACCCCUCUCCUUGGAAAAUGCCACUGUGCUGUUUGAAAAAAAGCAGCCUUUUAGGGCUAGAGUAUUUUAUAUAAACAGAAGAGCUAAGUUCCUGAAGACUAUGGAAUUCUCGGGUGCCAA: 0.505
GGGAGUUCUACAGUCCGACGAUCCAGUUCAUCUGGCCUUAACUGAAUGGAUUCCCUAUUUAACCAGAAACUGUUGUCCUCCUGCUAAACACUGUCUGUUAAGGGACUCAGUCAUAUAUGCUUAUUGUUUUGUUUGGAAUUCUCGGGUGCCAA: 0.909
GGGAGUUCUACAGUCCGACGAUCAAGUUGCAAACAAUAUCGCUGAACAGUAGGGUGUGUGGUGGUUUGGGGCAGUCUGACUUCACUUUAGUGUAUGACGUCUGUAGCCAAUGGGAACGUGAAAUAUUGGUGCGUGGAAUUCUCGGGUGCCAA: 0.632
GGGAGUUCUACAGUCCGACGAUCUAAGUUUAAACUCUUCCGAAGAUUAUGAAUGGGUCAGCACAAAUUUUUAGGCAACUGCUUUUUCCAUGUUCUGAGAUCUACGGGCUACAACAAAUUUUAUCAGCAGUGUUUGGAAUUCUCGGGUGCCAA: 0.919
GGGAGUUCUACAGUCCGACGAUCGAAUUGUACAUAGCUGGAUGUAAAUAGGAGCGUGUCUGUCAGGUUUUAUUCUUGUUUUGCCUUUUGGGUCUUAUUUCCAGGUCAGGAGAUGGCUAAUCCACACUAGCAAGUGGAAUUCUCGGGUGCCAA: 0.652

Repeated from above (block 1):
CAGGCAAA: -0.018
